Results of several laboratories.
Each line is one published result; not all experiments were run side by side. ± marks the error that the study gave.

SMILES | tested on | test | system | conditions | how to read | measurement | result
CCCC[C@H](NC(=O)CNC(=O)CNC(=O)CN1CCN(CC(=O)O)CCN(CC(=O)O)CCN(CC(=O)O)CC1)C(=O)N[C@H]1CC(=O)NCCCC[C@@H](C(N)=O)NC(=O)[C@H](Cc2c[nH]c3ccccc23)NC(=O)[C@H](CCCNC(=N)N)NC(=O)[C@@H](Cc2ccccc2)NC(=O)[C@H](Cc2c[nH]cn2)NC1=O [gallium-67 labelled] |  |  | female C57 mice, B16/F1 melanoma, liver | intravenous, 0.037 MBq, 0.5 h |  | tissue uptake | 1.82 ± 0.13 %ID/g
CC(C)[C@H](NC(=O)[C@@H]1CCCN1C(=O)[C@H](CCCNC(=N)N)NC(=O)[C@H](CS)NC(=O)[C@H](Cc1c[nH]c2ccccc12)NC(=O)[C@H](CCCNC(=N)N)NC(=O)[C@@H](Cc1ccccc1)NC(=O)[C@H](Cc1c[nH]cn1)NC(=O)[C@H](CCC(=O)O)NC(=O)[C@H](CS)NC(=O)[C@H](CS)NC(=O)[C@@H]1CC(=O)N[C@@H](CCCNC(=N)N)C(=O)NCC(=O)N[C@@H](CC(=O)O)C(=O)N[C@H](Cc2ccc(O)cc2)C(=O)N1)C(N)=O [technetium-99m labelled] |  |  | C57 mouse, female, B16/F1 melanoma, heart | intravenous, 0.037 MBq, 4 h |  | tissue uptake | 0.31 ± 0.08 %ID/g
CCCC[C@H](NC(=O)CNC(=O)CNC(=O)CN1CCN(CC(=O)O)CCN(CC(=O)O)CC1)C(=O)N[C@H]1CC(=O)NCCCC[C@@H](C(N)=O)NC(=O)[C@H](Cc2c[nH]c3ccccc23)NC(=O)[C@H](CCCNC(=N)N)NC(=O)[C@@H](Cc2ccccc2)NC(=O)[C@H](Cc2c[nH]cn2)NC1=O [copper-64 labelled] |  |  | female C57 mouse, B16/F1 melanoma, bone | intravenous, 0.037 MBq, 24 h |  | tissue uptake | 0.09 ± 0.07 %ID/g
CC(C)[C@H](NC(=O)[C@@H]1CCCN1C(=O)[C@H](CCCNC(=N)N)NC(=O)[C@H](CS)NC(=O)[C@H](Cc1c[nH]c2ccccc12)NC(=O)[C@H](CCCNC(=N)N)NC(=O)[C@@H](Cc1ccccc1)NC(=O)[C@H](Cc1c[nH]cn1)NC(=O)[C@H](CCC(=O)O)NC(=O)[C@H](CS)NC(=O)[C@H](CS)NC(=O)CNC(=O)[C@@H]1CC(=O)N[C@@H](CCCNC(=N)N)C(=O)NCC(=O)N[C@@H](CC(=O)O)C(=O)N[C@H](Cc2ccc(O)cc2)C(=O)N1)C(N)=O [technetium-99m labelled] |  |  | C57 mouse, female, B16/F1 melanoma, stomach | intravenous, 0.037 MBq, 24 h |  | tissue uptake | 0.67 ± 0.11 %ID/g
CN(C)c1ccc(-c2nc3ccc(OCCCCCN4CCN5CCN(CC4)CC(=O)[O][Al]([18F])[O]C(=O)C5)cc3s2)cc1 |  |  | ICR mouse, blood | intravenous, 60 min |  | tissue uptake | 0.31 ± 0.06 %ID/g
CC(=O)N[C@H](C(=O)N[C@H](C(=O)N[C@@H](CCCNC(=N)N)C(=O)N1Cc2ccccc2C[C@H]1C(=O)N[C@@H](Cc1ccccc1)C(N)=O)C1CCCCC1)C(C)C | human PBMC | Bio-Plex multiplex, item: RANTES |  | 250 µg/mL, 24 h |  | cytokine level | 549 ± 459 pg/mL
O=C([O-])CN1CCN(CC(=O)[O-])CCN(CC(=O)NCCc2ccc3c(c2)C2C=CCC2C(c2cc4c(cc2Br)OCO4)N3)CCN(CC(=O)[O-])CC1.[111In+3] (stereo not drawn) |  |  | mouse, Hec50 endometrial tumour, spleen | 0.5 h post injection |  | tissue uptake | 0.76 ± 0.06 %ID/g
CCCC[C@H](NC(=O)CNC(=O)CNC(=O)CN1CCN(CC(=O)O)CCN(CC(=O)O)CCN(CC(=O)O)CC1)C(=O)N[C@H]1CC(=O)NCCCC[C@@H](C(N)=O)NC(=O)[C@H](Cc2c[nH]c3ccccc23)NC(=O)[C@H](CCCNC(=N)N)NC(=O)[C@@H](Cc2ccccc2)NC(=O)[C@H](Cc2c[nH]cn2)NC1=O [lead-203 labelled] |  |  | C57 mouse, pancreas | intravenous, 0.056 MBq, 2 h |  | tissue uptake | 0.16 ± 0.12 %ID/g
NC12CNCCNCC(NCc3ccc(CNC(=O)CCCC(=O)NCc4ccc(-c5nncnn5)cc4)cc3)(CNCCNC1)CNCCNC2.[64Cu+2] |  |  | athymic nude mice SW1222 xenograft, spleen | 4 h post injection, 24 h accumulation interval, together with: huA33-TCO pretargeting |  | tissue uptake | 0.81 ± 0.2 %ID/g
CCCC[C@@H]1NC(=O)[C@@H](NC(=O)[C@H](CCC(=O)O)NC(=O)CNC(=O)CN2CCN(CC(=O)O)CCN(CC(=O)O)CCN(CC(=O)O)CC2)CCCCNC(=O)C[C@@H](C(N)=O)NC(=O)[C@H](C(C)C)NC(=O)[C@@H]2CCCN2C(=O)[C@H](CCCNC(=N)N)NC(=O)CNC(=O)[C@H](Cc2c[nH]c3ccccc23)NC(=O)[C@H](CCCNC(=N)N)NC(=O)[C@@H](Cc2ccccc2)NC(=O)[C@H](Cc2c[nH]cn2)NC(=O)[C@H](CCC(=O)O)NC1=O [gallium-67 labelled] |  |  | C57 mice with B16/F1 melanoma, liver | intravenous, 0.5 h |  | tissue uptake | 0.69 ± 0.27 %ID/g
[64Cu+2].c1ccc(CNCc2ccc(CN3CCCN4CCNCCCN(CC4)CC3)cc2)nc1 | CXCR4 |  | NOD/SCID mouse, U87 and U87-stb-CXCR4 xenografts, liver | iv, 120 min, ex vivo |  | tissue uptake | 92.8 ± 20.5 %ID/g
OCc1cn(Cc2ccc(-c3noc(-c4ccc(OCC[18F])c(C(F)(F)F)c4)n3)cc2)nn1 |  |  | female Lewis rat, kidney | intravenous, 120 min |  | tissue uptake | 1.62 ± 0.09 %ID/g
CCCC[C@H](NC(=O)CNC(=O)CNC(=O)CN1CCN(CC(=O)O)CCN(CC(=O)O)CCN(CC(=O)O)CC1)C(=O)N[C@H]1CC(=O)NCCCC[C@@H](C(N)=O)NC(=O)[C@H](Cc2c[nH]c3ccccc23)NC(=O)[C@H](CCCNC(=N)N)NC(=O)[C@@H](Cc2ccccc2)NC(=O)[C@H](Cc2c[nH]cn2)NC1=O [copper-64 labelled] |  |  | C57 mouse B16/F1 melanoma, pancreas | 0.5 h |  | tissue uptake | 1.34 ± 0.28 %ID/g
O=C(O)CCC(NP(=O)(O)OCCC[C@@H](NC(=O)CC[C@H](NC(=O)CCCCCNC(=O)c1ccc([18F])cc1)C(=O)O)C(=O)O)C(=O)O (stereo partly drawn) | CWR22Rv1 tumour model |  | host not given, bone | 4 h, tumour-bearing |  | tracer uptake | 0.05 %ID/g
NS(=O)(=O)c1ccc(NC(=O)NN[C@@H]2O[C@H](CO)[C@@H](O)[C@H](O)[C@@H]2O)cc1 | rabbit erythrocytes |  |  | 64 µg/mL, 3 h | relative to: complete lysis | hemolysis | 5.05%
O=C(O)C1CN(Cc2ccc(-c3noc(-c4ccc(OCC[18F])c(C(F)(F)F)c4)n3)cc2)C1 |  |  | Sprague-Dawley rat, male, normal, fat | iv, 5 min |  | tissue uptake | 0.051 ± 0.011 %ID/g
C[C@H](CN(C)Cc1ccccc1)NC(=O)c1ccc(-c2noc(C(F)(F)[18F])n2)cc1 |  | PET imaging | female Sprague-Dawley rats, brain | intravenous, 1 min |  | tissue uptake | 2.96 ± 0.95 SUV
O=Cc1c(O)ccc2ccccc12 | HUVEC | RNA sequencing, item: TCF19 |  | 75 µM, 24 h | relative to: DMSO | log2 fold change | -2.89
CC[C@H]1[C@@H](O)[C@@H]2[C@H](CC[C@]3(C)[C@@H]([C@H](C)CCOS(=O)(=O)[O-])CC[C@@H]23)[C@@]2(C)CC[C@@H](O)C[C@@H]12.[Na+] |  | EchoMRI | ob/ob NASH mouse model | oral, 3 mg/kg once daily, before treatment, baseline of 8 week study |  | whole-body fat mass | 18.5 ± 0.7 g
O=C([O-])c1cccc(CN(CCN(Cc2cn(Cc3ccccc3)nn2)Cc2cccc(C(=O)[O-])n2)Cc2cn(Cc3ccccc3)nn2)n1.[64Cu+2] |  |  | healthy athymic nude mice, spleen | intravenous, 24 h |  | tissue uptake | 3.13 %ID/g
[64Cu+2].c1cnc(CNCc2ccc(CN3CCCN4CCNCCCN(CC4)CC3)cc2)nc1 | CXCR4 |  | NOD/SCID mouse, U87 xenografts, U87 tumour | 90 min |  | tissue uptake | 2.57 ± 0.44 %ID/g

Excerpt of the above:
SMILES | tested on | test | system | conditions | how to read | measurement | result
CCCC[C@H](NC(=O)CNC(=O)CNC(=O)CN1CCN(CC(=O)O)CCN(CC(=O)O)CCN(CC(=O)O)CC1)C(=O)N[C@H]1CC(=O)NCCCC[C@@H](C(N)=O)NC(=O)[C@H](Cc2c[nH]c3ccccc23)NC(=O)[C@H](CCCNC(=N)N)NC(=O)[C@@H](Cc2ccccc2)NC(=O)[C@H](Cc2c[nH]cn2)NC1=O [copper-64 labelled] |  |  | C57 mouse B16/F1 melanoma, pancreas | 0.5 h |  | tissue uptake | 1.34 ± 0.28 %ID/g
O=C(O)C1CN(Cc2ccc(-c3noc(-c4ccc(OCC[18F])c(C(F)(F)F)c4)n3)cc2)C1 |  |  | Sprague-Dawley rat, male, normal, fat | iv, 5 min |  | tissue uptake | 0.051 ± 0.011 %ID/g
